Experimental data of several laboratories.
Each numbered part is a random draw from the data of one study; scales do not carry over between parts.
Sequence of UniProt P00519 (whole entry, unmodified, looked up): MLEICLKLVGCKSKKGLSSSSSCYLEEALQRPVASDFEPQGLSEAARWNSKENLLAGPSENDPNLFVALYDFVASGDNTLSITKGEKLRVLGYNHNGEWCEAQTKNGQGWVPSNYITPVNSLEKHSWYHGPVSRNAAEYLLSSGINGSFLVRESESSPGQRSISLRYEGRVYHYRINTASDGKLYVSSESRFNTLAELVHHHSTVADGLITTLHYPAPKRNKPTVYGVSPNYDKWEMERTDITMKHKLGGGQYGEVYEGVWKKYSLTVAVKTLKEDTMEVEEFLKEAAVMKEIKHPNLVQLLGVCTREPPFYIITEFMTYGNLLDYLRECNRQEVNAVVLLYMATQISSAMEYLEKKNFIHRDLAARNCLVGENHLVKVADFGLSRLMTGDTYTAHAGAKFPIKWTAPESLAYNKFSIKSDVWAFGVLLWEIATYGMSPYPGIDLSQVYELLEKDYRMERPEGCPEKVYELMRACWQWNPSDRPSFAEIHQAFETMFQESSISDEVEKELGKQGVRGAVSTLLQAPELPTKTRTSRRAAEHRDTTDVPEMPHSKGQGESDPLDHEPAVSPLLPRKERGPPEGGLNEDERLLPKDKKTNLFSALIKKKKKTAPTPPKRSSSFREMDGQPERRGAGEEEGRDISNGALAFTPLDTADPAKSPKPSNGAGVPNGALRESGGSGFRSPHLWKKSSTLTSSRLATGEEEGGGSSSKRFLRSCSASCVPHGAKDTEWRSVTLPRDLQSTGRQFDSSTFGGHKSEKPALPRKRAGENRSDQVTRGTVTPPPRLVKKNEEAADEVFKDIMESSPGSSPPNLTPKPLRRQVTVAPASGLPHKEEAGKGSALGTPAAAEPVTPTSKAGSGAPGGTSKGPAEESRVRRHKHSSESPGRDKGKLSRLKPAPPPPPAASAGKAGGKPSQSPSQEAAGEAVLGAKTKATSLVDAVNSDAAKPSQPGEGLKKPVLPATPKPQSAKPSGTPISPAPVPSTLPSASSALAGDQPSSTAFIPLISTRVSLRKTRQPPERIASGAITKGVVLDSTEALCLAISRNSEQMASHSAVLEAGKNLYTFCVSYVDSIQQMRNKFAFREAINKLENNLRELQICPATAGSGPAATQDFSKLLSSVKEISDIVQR
Sequence of UniProt O95819 (whole entry, looked up): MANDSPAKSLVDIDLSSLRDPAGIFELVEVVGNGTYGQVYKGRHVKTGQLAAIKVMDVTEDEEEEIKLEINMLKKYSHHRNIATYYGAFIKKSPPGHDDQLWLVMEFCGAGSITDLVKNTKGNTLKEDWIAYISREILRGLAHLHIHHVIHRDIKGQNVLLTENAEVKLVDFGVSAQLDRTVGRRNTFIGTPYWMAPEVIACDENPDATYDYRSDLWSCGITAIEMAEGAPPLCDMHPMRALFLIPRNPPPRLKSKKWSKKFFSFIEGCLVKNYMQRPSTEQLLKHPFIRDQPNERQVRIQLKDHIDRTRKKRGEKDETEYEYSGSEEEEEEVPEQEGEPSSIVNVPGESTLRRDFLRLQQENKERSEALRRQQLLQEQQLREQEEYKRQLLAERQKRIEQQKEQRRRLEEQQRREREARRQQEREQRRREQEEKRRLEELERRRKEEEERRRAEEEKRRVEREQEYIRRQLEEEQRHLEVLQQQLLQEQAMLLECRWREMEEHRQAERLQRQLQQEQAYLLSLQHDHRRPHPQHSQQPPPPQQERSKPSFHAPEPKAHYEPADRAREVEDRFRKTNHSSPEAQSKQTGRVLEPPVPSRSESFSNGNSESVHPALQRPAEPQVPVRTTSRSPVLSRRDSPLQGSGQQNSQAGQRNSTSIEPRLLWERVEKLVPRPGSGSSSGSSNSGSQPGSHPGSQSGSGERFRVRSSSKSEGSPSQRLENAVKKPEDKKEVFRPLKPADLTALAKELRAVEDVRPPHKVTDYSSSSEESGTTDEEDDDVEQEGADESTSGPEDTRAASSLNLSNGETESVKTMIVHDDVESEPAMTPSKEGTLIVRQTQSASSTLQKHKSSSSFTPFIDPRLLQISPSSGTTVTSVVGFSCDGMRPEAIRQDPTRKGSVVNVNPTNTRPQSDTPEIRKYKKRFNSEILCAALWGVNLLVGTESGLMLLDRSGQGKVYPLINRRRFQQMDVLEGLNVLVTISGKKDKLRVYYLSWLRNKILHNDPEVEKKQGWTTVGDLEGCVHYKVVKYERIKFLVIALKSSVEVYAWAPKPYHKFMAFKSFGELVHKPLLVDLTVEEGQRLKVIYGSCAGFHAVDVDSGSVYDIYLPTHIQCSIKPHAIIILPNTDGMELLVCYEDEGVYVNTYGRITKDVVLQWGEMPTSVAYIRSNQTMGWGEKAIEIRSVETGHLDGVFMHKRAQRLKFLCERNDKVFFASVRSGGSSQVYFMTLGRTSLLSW
Sequence of UniProt P19525 (whole entry, looked up): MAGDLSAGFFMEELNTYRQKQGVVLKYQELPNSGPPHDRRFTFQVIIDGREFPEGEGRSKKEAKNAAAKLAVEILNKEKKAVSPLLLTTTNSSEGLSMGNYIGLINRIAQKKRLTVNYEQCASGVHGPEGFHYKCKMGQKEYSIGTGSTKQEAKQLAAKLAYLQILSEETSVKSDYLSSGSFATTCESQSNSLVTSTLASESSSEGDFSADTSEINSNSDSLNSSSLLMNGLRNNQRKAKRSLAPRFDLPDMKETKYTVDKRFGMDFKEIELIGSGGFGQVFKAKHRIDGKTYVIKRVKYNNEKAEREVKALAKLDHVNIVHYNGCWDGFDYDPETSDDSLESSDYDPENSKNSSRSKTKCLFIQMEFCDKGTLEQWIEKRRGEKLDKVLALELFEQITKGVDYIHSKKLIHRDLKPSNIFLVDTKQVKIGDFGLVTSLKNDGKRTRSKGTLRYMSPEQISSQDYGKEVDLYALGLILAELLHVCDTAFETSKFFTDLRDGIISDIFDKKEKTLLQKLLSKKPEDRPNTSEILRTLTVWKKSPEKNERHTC
Sequence of UniProt P08069 (whole entry, looked up): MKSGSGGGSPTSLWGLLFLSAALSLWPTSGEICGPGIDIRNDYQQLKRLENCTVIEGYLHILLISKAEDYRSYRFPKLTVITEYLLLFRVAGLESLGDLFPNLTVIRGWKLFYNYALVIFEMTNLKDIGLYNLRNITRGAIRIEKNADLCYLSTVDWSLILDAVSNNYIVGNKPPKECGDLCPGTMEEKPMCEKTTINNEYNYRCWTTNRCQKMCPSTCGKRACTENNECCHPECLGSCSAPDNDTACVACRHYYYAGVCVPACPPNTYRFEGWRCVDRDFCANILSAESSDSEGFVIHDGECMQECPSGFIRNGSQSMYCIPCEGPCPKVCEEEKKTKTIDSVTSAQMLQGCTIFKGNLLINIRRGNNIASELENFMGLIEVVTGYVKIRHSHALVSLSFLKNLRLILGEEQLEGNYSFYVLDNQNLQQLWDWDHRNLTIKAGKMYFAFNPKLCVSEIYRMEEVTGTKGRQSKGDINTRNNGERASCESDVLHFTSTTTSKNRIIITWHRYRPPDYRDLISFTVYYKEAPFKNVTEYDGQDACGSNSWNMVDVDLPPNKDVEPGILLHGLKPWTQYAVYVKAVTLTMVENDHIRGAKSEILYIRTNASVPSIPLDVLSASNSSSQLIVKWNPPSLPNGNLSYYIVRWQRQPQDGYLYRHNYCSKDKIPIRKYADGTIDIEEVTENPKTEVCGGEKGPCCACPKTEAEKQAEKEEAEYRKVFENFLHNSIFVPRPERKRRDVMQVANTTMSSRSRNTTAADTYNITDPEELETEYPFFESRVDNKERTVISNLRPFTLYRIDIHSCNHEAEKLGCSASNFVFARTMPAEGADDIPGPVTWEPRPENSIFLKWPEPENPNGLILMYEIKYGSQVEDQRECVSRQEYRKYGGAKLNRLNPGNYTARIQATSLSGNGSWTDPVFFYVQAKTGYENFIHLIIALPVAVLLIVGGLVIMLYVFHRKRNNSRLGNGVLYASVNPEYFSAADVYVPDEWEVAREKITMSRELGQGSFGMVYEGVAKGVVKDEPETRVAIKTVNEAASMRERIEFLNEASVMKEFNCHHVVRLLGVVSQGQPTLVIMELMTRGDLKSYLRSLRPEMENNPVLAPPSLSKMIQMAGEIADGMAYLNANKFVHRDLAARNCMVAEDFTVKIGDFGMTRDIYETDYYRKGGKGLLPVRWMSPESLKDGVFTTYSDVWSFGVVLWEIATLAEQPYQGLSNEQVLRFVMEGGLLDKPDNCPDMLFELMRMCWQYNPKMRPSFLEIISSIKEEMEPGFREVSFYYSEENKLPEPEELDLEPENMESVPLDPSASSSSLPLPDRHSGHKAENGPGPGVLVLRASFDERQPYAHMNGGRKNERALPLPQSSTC
Sequence of UniProt P57059 (whole entry, looked up): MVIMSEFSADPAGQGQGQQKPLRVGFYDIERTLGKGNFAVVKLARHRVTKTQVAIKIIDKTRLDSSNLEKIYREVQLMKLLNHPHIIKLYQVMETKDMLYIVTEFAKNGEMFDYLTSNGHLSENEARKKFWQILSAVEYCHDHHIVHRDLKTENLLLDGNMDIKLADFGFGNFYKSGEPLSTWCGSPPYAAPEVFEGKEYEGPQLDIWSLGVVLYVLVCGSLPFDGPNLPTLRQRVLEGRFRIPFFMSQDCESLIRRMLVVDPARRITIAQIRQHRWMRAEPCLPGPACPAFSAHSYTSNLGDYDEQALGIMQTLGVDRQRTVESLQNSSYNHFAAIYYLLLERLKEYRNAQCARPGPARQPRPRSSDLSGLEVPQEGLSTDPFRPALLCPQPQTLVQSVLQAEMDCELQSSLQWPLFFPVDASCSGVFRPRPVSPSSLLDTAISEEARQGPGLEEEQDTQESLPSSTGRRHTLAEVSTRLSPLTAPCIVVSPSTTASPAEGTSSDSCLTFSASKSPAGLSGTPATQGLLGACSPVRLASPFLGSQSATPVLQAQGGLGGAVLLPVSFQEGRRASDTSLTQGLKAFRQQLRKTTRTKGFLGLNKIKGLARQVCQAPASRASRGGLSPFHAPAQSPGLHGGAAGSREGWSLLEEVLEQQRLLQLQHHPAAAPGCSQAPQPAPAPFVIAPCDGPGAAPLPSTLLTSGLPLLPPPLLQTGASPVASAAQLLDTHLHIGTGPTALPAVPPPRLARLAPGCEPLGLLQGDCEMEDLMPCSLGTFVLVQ

Set 1
SMILES: CCC(=N\O)/C(C)=C/c1ccc(F)cc1
Concentration: 1 µM
target	observed	technique	setting	reference	remaining binding [%]
INSRR (Homo sapiens, UniProt P14616)	cell-free assay	competition with immobilised ligand	–	–	83
PIP5K1A (Homo sapiens, UniProt Q99755)	cell-free assay	competition with immobilised ligand	–	–	97
IGF1R (Homo sapiens, UniProt P08069)	cell-free assay	competition with immobilised ligand	–	–	79
SIK1 (Homo sapiens, UniProt P57059)	–	competition binding	–	–	80
TEK (Homo sapiens, UniProt Q02763)	cell-free assay	competition with immobilised ligand	–	–	89
DAPK3 (Homo sapiens, UniProt O43293)	cell-free assay	competition with immobilised ligand	–	–	87
EGFR (Homo sapiens, UniProt P00533, G719C)	cell-free assay	competition with immobilised ligand	–	–	64
ABL1 (Homo sapiens, UniProt P00519, F317I)	–	KINOMEscan	F317I mutant, phosphorylated	control	77
IRAK3 (Homo sapiens, UniProt Q9Y616)	cell-free assay	competition with immobilised ligand	–	–	100
PIK3CA (Homo sapiens, UniProt P42336, H1047L)	cell-free assay	competition with immobilised ligand	–	–	100
EIF2AK2 (Homo sapiens, UniProt P19525)	cell-free assay	competition with immobilised ligand	–	–	100
PI4KB (Homo sapiens, UniProt Q9UBF8)	cell-free assay	competition with immobilised ligand	–	–	50
FLT3 (Homo sapiens, UniProt P36888, K663Q)	cell-free assay	competition with immobilised ligand	–	–	100
CAMK2D (Homo sapiens, UniProt Q13557)	cell-free assay	competition with immobilised ligand	–	–	99
SYK (Homo sapiens, UniProt P43405)	cell-free assay	competition with immobilised ligand	–	–	100
ACVR2B (Homo sapiens, UniProt Q13705)	cell-free assay	competition with immobilised ligand	–	–	91
TEC (Homo sapiens, UniProt P42680)	cell-free assay	competition with immobilised ligand	–	–	89
Tyrosine-protein kinase ABL1, non-phosphorylated (ABL1, Homo sapiens, UniProt P00519, F317I)	cell-free assay	competition with immobilised ligand	–	–	100
MAP3K7 (Homo sapiens, UniProt O43318)	cell-free assay	competition with immobilised ligand	–	–	81
IKBKE (Homo sapiens, UniProt Q14164)	cell-free assay	competition with immobilised ligand	–	–	94
WEE2 (Homo sapiens, UniProt P0C1S8)	cell-free assay	competition with immobilised ligand	–	–	83
PIP4K2B (Homo sapiens, UniProt P78356)	cell-free assay	competition with immobilised ligand	–	–	91
LTK (Homo sapiens, UniProt P29376)	cell-free assay	competition with immobilised ligand	–	–	87
GSK3A (Homo sapiens, UniProt P49840)	cell-free assay	competition with immobilised ligand	–	–	100
STK35 (Homo sapiens, UniProt Q8TDR2)	cell-free assay	competition with immobilised ligand	–	–	100

Set 2
SMILES: CO[C@@H]1[C@H](N(C)C(=O)c2ccccc2)C[C@H]2O[C@]1(C)n1c3ccccc3c3c4c(c5c6ccccc6n2c5c31)C(=O)NC4
Action: inhibitor
Concentration: 1 µM
target	observed	inhibition [%]
MAP4K4 (Homo sapiens, UniProt O95819)	enzyme activity	50
Ribosomal protein S6 kinase alpha-5, C-terminal kinase domain (RPS6KA5, Homo sapiens, UniProt O75582)	–	17
EPHA5 (Homo sapiens, UniProt P54756)	enzyme activity	0
TAOK1 (Homo sapiens, UniProt Q7L7X3)	enzyme activity	50
RIOK2 (Homo sapiens, UniProt Q9BVS4)	enzyme activity	11

Set 3
Host: mouse
Sample: microsomes or S9
Concentration: 2 µM
Time: 0.5 h
Compound	remaining compound
Cn1c(=O)n(Cc2ccc(-c3ccccc3C#N)cc2)c2ccccc21	0.121%
CCOC(=O)N1CCN(S(=O)(=O)c2c(C)c(C)c(C)c(C)c2C)CC1	2.5%
O=C(c1cccnc1Cl)N1CCN(c2nc3nccc(-c4cccs4)n3n2)CC1	34.3%
COc1ccc(CCC(=O)N[C@@H]2CN(S(C)(=O)=O)C[C@H]2CN(C)C)cc1	93.7%
CCn1nc(C2CCCCN2C(=O)NC(C)C)c2c1CCOC2 (stereo not shown)	56.4%

Set 4
Observed: AlphaScreen signal
Technique: AlphaScreen counter screen
Sample: His6 peptide without bromodomain
Concentration: 50 µM
Setting: assay interference check
SMILES	inhibition [%]
CC(=O)Nc1cccc(-n2c(=O)n(C3CC3)c(=O)c3c(Nc4ccc(I)cc4F)n(C)c(=O)c(C)c32)c1	23.3
CCCCCOc1ccc(NC(=O)Nc2ccc(Cl)c(Cl)c2)cc1	-0.25
Cc1cnc(NC(=O)Nc2cc(Br)c(C)cc2OC[C@@H]2CNCCO2)cn1	41.5
CCOc1cc2ncnc(Nc3cccc(Br)c3)c2cc1OCC	30.7
O=C1NC(=NCc2cccs2)S/C1=C\c1ccc2ncccc2c1	19.2

Set 5
Cell line: A-375
Concentration: 100 µM
Time: 36 h
Structure (SMILES)	viability [%]
N#CC1(c2ccc(NC(=O)c3cccnc3NCc3ccncc3)cc2)CCCC1	50.2
Cc1c(-c2ccccc2)oc2c(C(=O)OCCN3CCCCC3)cccc2c1=O	1.71
Nc1cccc2c1CN(C1CCC(=O)NC1=O)C2=O (stereo not shown)	105
COc1nc(C)nc(Cl)c1N=C1NCCN1	105
COCCOC(=O)C1=C(C)NC(C)=C(C(=O)OC/C=C/c2ccccc2)C1c1cccc([N+](=O)[O-])c1 (stereo not shown)	22.1
CC(C)(C)NCC(O)COc1cccc2c1CCC(=O)N2 (stereo not shown)	97.2

Set 6
Cell line: Huh-7
Concentration: 10 µM
Time: 24 h
Compound	viability [%]
CC(=O)CCCCn1c(=O)c2c(ncn2C)n(C)c1=O	102
CCCC(CCC)C(=O)O	105
O=C(O)CCCCCCCC(=O)O	102
CC(C)(C)c1ccc(C(O)CCCN2CCC(C(O)(c3ccccc3)c3ccccc3)CC2)cc1 (stereo not shown)	38.4
CN(C)CCc1c[nH]c2ccc(CS(=O)(=O)N3CCCC3)cc12	103
CCOC(=O)C1=C(COCCN)NC(C)=C(C(=O)OC)C1c1ccccc1Cl (stereo not shown)	96.8
